{"data": "Results gathered from unrelated publications", "BCHE": "Cholinesterase (BCHE, Homo sapiens, UniProt P06276)", "note": "Each line is one published result; not all experiments were run side by side. “And” joins repeats or separate records; there may be more than shown. ± gives the spread as reported."}
{"Compound": "CC(C)CC(=O)OC[C@H]1O[C@@](C#N)(c2ccc3c(N)ncnn23)[C@H](O)[C@@H]1O", "target or system": "ATP-dependent translocase ABCB1 (ABCB1, Homo sapiens, UniProt P08183)", "test system": "Caco-2", "conditions": "0.9 µM, with: verapamil 100 µM", "endpoint": "Papp A to B", "result": "1.55 ×10⁻⁶ cm/s"}
{"Compound": "Cc1scc2c1N(C(=O)CN1CCN(C)CC1)c1ccccc1NC2=O", "target or system": "Plasmodium falciparum", "test system": "3D7", "endpoint": "IC50", "result": "3.16 µM"}
{"Compound": "O=C(O)c1cn(Cc2ccc(F)cc2)c2ccccc12", "target or system": "UDP-glucuronosyltransferase 1A10 (UGT1A10, Homo sapiens, UniProt Q9HAW8)", "test": "substrate, recombinant His-tagged enzyme", "conditions": "50 µM, 60 min", "endpoint": "glucuronidation rate", "result": "3.3 ± 0.4 nmol/min/mg"}
{"Compound": "CC1(C)[C@H](C(=O)OCc2cccc(Oc3ccccc3)c2)[C@@H]1C=C(Cl)Cl", "target or system": "human cytosolic CES1", "test": "IVIVE from expressed enzymes", "test system": "human, liver, in vivo scaled", "conditions": "0.1 µM, age-specific", "endpoint": "enzyme contribution to CLint", "result": "32.2%"}
{"Compound": "Cc1ncc2n1-c1ccc(Cl)cc1C(c1ccccc1F)=NC2", "target or system": "Cytochrome P450 3A4 (CYP3A4, Homo sapiens, UniProt P08684)", "test system": "human, plasma", "conditions": "oral, 2 mg, day 1, alone, arithmetic mean", "endpoint": "CL/F", "result": "104 L/h"}
{"Compound": "COc1cc2c(Oc3ccc4[nH]c(C)cc4c3F)ccnc2cc1OCC1(N)CC1", "test system": "paediatric recurrent refractory sarcoma", "conditions": "8 mg", "endpoint": "grade 3 Myalgia", "result": "0%"}
{"Compound": "Cc1cc2nc3c(=O)[nH]c(=O)nc-3n(C[C@H](O)[C@H](O)[C@H](O)COP(=O)(O)O)c2cc1C", "target or system": "Oxygen-insensitive NAD(P)H nitroreductase (nfsB, Escherichia coli K-12, UniProt P38489, K14E)", "test": "bound cofactor redox, redox titration", "conditions": "pH 7.0, 25 °C, anaerobic", "endpoint": "midpoint potential", "result": "-196 ± 1 mV"}
{"Compound": "Nc1ncnc2c([C@@H]3N[C@H](CO)[C@@H](O)[C@H]3O)c[nH]c12", "target or system": "HeLa", "conditions": "12.5 µM", "endpoint": "cell number", "result": "5900 and 6000"}
{"Compound": "CO[C@H]1C[C@@H]2CC[C@@H](C)[C@@](O)(O2)C(=O)C(=O)N2CCCC[C@H]2C(=O)O[C@H]([C@H](C)C[C@@H]2CC[C@@H](OC(=O)NCCOCCOCCOCCOCCOCCOCCOCCOCCC(=O)N3CCc4cc(Cn5nc(-c6ccc7oc(N)nc7c6)c6c(N)ncnc65)ccc4C3)[C@H](OC)C2)C[C@@H](O)[C@H](C)/C=C(\\C)[C@@H](O)[C@@H](OC)C(=O)[C@H](C)C[C@H](C)/C=C/C=C/C=C/1C", "test system": "patients with advanced solid tumours", "conditions": "intravenous, 8 mg weekly, any grade", "endpoint": "headache incidence", "result": "25%"}
{"Compound": "CCCC[C@H](NC(C)=O)C(=O)N[C@@H](CO)C(=O)N[C@H](C(=O)N1CCC[C@H]1C(=O)N[C@@H](C)C(=O)N[C@@H](CCCNC(=N)N)C(=O)N[C@@H](CCCNC(=N)N)C(=O)N[C@@H](CCCNC(=N)N)C(=O)N[C@@H](CC(C)C)C(=O)N[C@@H](CCCC)C(=O)N[C@@H](CCCNC(=N)N)C(=O)N[C@@H](CC(=O)O)C(=O)N[C@@H](Cc1ccccc1)C(=O)N[C@@H](CCCCN)C(=O)N[C@@H](CCCNC(=N)N)C(=O)N[C@@H](CC(C)C)C(=O)N[C@@H](CCC(N)=O)C(N)=O)[C@@H](C)O", "target or system": "proteinase K", "test": "LC-MS", "conditions": "25 µM, 61.4 min, pH 7.4", "endpoint": "remaining peptide", "result": "6.1%"}
{"Compound": "CC(=O)N1CCC(C(=O)N2CCN3C(=O)c4cc(-c5ccccc5)ccc4NC(=O)C3C2)CC1 (stereo not shown)", "target or system": "Escherichia coli", "test system": "WP2 uvrA", "conditions": "1581 µg/plate, with: rat liver S9", "endpoint": "revertants per plate", "result": 31}
{"Compound": "CC[C@H](NC(=O)[C@H](CS(=O)(=O)CC1CC1)N[C@@H](c1ccc(F)cc1)C(F)(F)F)C(=O)C(=O)NC1CC1", "target or system": "BCHE", "test": "inhibitor", "endpoint": "IC50", "result": "2.26 ± 0.29 µM"}
{"Compound": "O=C(N/N=C/c1ccc(Cl)cc1Cl)c1n[nH]c2c1CCC2", "target or system": "Gag-Pol polyprotein, integrase with LEDGF/p75 (gag-pol, Human immunodeficiency virus 1, UniProt P12497)", "test": "LEDGF/p75-integrase interaction, inhibitor, AlphaScreen", "endpoint": "IC50", "result": "> 50 µM"}
{"Compound": "COc1cccc(-c2n[nH]c(SCc3ccccn3)n2)c1OC", "target or system": "Salmonella typhimurium", "test": "Ames test, plate incorporation", "test system": "TA100", "conditions": "1.0 mg/plate, with rat liver S9", "endpoint": "revertant colonies per plate", "result": 112}
{"Compound": "O=c1ccc2ccccc2o1", "target or system": "NHEK", "test": "cell count", "conditions": "concentration not given, 6 h, PGC1alpha mitochondrial stress panel", "endpoint": "chance response", "result": "0.29%"}
{"Compound": "CC1(C)C(C=C(Cl)Cl)C1C(=O)OC(C#N)c1ccc(F)c(Oc2ccccc2)c1 (stereo not shown)", "target or system": "human cytosolic CES1", "test": "IVIVE from expressed enzymes", "test system": "human, 6 months old, expressed human CES1", "conditions": "0.1 µM", "scale": "reference: total hepatic CLint in vivo", "endpoint": "relative enzyme contribution", "result": "34.2%"}
{"Compound": "OCc1ncc2n1-c1ccc(Cl)cc1C(c1ccccc1F)=NC2", "target or system": "CYP3A4 (human)", "test system": "human, plasma", "conditions": "oral, 2 mg midazolam, with: encorafenib at steady state", "scale": "reference: Day -7 probe alone", "endpoint": "Cmax increase", "result": "25%"}
{"Compound": "[Cl-].[Cl-].[Pt+2].[Ru+2].c1ccc(-c2nc3cc4ccccc4cc3nc2-c2ccccn2)nc1.c1cnc2c(c1)ccc1cccnc12.c1cnc2c(c1)ccc1cccnc12", "target or system": "Danio rerio", "test system": "embryos", "conditions": "60 µM, 72 h", "endpoint": "hatching rate", "result": "20 ± 3.7%"}
{"Compound": "Cc1cc(C(=O)NC(C)(C)COc2cccc3c2C(N)=NS(=O)(=O)N3)cc(C)n1", "target or system": "Escherichia coli", "test": "Ames test, initial", "test system": "WP2 uvrA", "conditions": "50.0 µg/plate, with: rat liver S9", "scale": "reference: solvent control", "endpoint": "revertant ratio", "result": 0.7}
{"Compound": "OC(CCN1CC=C(c2ccc(F)cc2)CC1)c1ccc(F)c2ccccc12 (stereo not shown)", "target or system": "Salmonella typhimurium", "test": "SOS/umu test", "test system": "TA1535/pSK1002", "conditions": "0.25 mg/mL, 4 h, without S9, lower range", "endpoint": "survival", "result": "159%"}
{"Compound": "C[C@]12N[C@H](Cc3ccccc31)c1ccccc12", "target or system": "Plasmodium falciparum", "test system": "Dd2", "endpoint": "IC50", "result": "10 µM"}
{"Compound": "CCN(CC)C(=O)[C@@H]1C=C2c3cccc4[nH]cc(c34)C[C@H]2N(C)C1", "test": "refers to: increased appetite", "test system": "healthy volunteers", "conditions": "dose not given, 12 to 24 h", "scale": "reference: placebo, direction not given", "endpoint": "List of Complaints score", "result": -1}
{"Compound": "O=[N+]([O-])c1ccc(N2CCN(CCC(O)c3ccc(F)cc3)CC2)c(C(F)(F)F)c1 (stereo not shown)", "target or system": "Salmonella typhimurium", "test": "SOS response, SOS/umu test", "test system": "TA1535/pSK1002, TGA medium", "conditions": "0.000244 mg/mL, 4 h, with: 10% rat liver S9", "scale": "reference: untreated", "endpoint": "induction factor", "result": 1}
{"Compound": "Cc1cccc(S(=O)(=O)N2CCC[C@@H]2CCN2CCC(C)CC2)c1", "target or system": "BCHE", "test": "inhibitor", "endpoint": "IC50", "result": "3.71 ± 0.24 µM"}
{"Compound": "C#Cc1ccc2c(c1)C(c1ccccn1)=NCc1c(-c3cnco3)ncn1-2", "test system": "DMSO", "conditions": "24 h, 25 °C, thermodynamic equilibrium", "endpoint": "solubility", "result": "4290 µg/mL"}
{"note": "Excerpt of the above:"}
{"Compound": "Nc1ncnc2c([C@@H]3N[C@H](CO)[C@@H](O)[C@H]3O)c[nH]c12", "target or system": "HeLa", "conditions": "12.5 µM", "endpoint": "cell number", "result": "5900 and 6000"}
{"Compound": "CO[C@H]1C[C@@H]2CC[C@@H](C)[C@@](O)(O2)C(=O)C(=O)N2CCCC[C@H]2C(=O)O[C@H]([C@H](C)C[C@@H]2CC[C@@H](OC(=O)NCCOCCOCCOCCOCCOCCOCCOCCOCCC(=O)N3CCc4cc(Cn5nc(-c6ccc7oc(N)nc7c6)c6c(N)ncnc65)ccc4C3)[C@H](OC)C2)C[C@@H](O)[C@H](C)/C=C(\\C)[C@@H](O)[C@@H](OC)C(=O)[C@H](C)C[C@H](C)/C=C/C=C/C=C/1C", "test system": "patients with advanced solid tumours", "conditions": "intravenous, 8 mg weekly, any grade", "endpoint": "headache incidence", "result": "25%"}
